Published values pooled from the literature.
Protocols differ between the studies behind these lines. Values joined by “and” are separate records of one study, mostly repeats; a detail may differ. Numbers after ± are the reported error.
USP16 ZnF-UBD domain: Ubiquitin carboxyl-terminal hydrolase 16, ZnF-UBD domain (USP16, Homo sapiens, UniProt Q9Y5T5)
Chain of UniProt Q9Y5T5 (whole entry, looked up): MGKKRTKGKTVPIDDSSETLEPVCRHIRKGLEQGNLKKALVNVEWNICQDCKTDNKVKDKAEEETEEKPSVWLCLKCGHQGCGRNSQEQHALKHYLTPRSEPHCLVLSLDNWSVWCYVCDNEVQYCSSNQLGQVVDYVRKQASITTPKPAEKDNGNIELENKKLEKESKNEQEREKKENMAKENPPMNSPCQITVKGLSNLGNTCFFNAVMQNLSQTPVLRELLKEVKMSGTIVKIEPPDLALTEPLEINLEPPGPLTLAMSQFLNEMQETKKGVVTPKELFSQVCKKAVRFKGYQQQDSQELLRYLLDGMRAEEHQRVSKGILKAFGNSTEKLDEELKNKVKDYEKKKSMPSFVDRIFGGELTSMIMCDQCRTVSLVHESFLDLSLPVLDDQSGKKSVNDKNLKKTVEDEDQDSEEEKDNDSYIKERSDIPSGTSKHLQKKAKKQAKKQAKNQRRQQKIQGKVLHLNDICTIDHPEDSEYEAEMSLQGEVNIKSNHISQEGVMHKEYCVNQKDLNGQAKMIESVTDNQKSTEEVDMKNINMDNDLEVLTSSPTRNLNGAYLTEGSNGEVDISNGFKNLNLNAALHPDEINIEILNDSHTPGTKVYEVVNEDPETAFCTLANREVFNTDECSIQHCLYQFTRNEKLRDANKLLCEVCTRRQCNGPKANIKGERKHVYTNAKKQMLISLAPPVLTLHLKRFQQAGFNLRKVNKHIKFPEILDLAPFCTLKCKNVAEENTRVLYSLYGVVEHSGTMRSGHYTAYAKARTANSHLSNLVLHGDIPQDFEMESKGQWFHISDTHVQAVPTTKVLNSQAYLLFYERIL

SMILES	tested on	assay	test system	conditions	scale	endpoint	value
CCS(=O)(=O)c1nc(C2CC2)cc(C(F)(F)F)n1	transportin-1/2	FUS nuclear import, high content imaging	HeLa Kyoto reporter	1.58 µM, 2 h		cells with nuclear reporter	93.5% and 94.9%
Nc1nc2c(ncn2[C@@H]2O[C@H](COP(=O)(O)OP(=O)(O)O[C@H]3O[C@H](CO)[C@@H](O)[C@H](O)[C@@H]3O)[C@@H](O)[C@H]2O)c(=O)[nH]1		binding, MIDAS equilibrium dialysis LC-MS	A2AR-BRIL thermostabilized	concentration not given	baseline: no-protein control	log2 fold change	-0.169
Cn1cc(-c2ccc(-c3cncc(Cl)c3N3CCC4(CCNC4=O)CC3)cc2)cn1	COLO 205	gene expression, microarray, measured: OPTN mRNA		concentration not given, 2 h	baseline: untreated cells	log2 fold change	4.15
CC(C)C[C@H](NC(=O)C[C@H](O)[C@H](CC(C)C)NC(=O)[C@H](Cc1c[nH]cn1)NC(=O)CNC(=O)[C@@H](NC(=O)[C@H](C)NC(=O)[C@H](Cc1c[nH]c2ccccc12)NC(=O)[C@H](CCC(N)=O)NC(=O)[C@@H](Cc1ccccc1)NC(=O)COCCOCCNC(=O)CN1CCN(CC(=O)O)CCN(CC(=O)O)CCN(CC(=O)O)CC1)C(C)C)C(N)=O [lutetium-177 labelled]			female BALB/c nu/nu mice, muscle	intravenous, 50 pmol, 24 h		tissue uptake	0.007 ± 0.002 %ID/g
CCn1cc(-c2cc(Cn3ccoc3=N)cc3c2CCN([C@@H](C)c2cc(OC)ccn2)C3=O)c(C(F)(F)F)n1	HCC78	cell growth, inhibitor		120 h		EC50	0.00461 µM
O=C(O)CCC(=O)c1cccs1	USP16 ZnF-UBD domain					Kd	> 1000 µM
N[C@@H](C[C@@H](O)C(=O)O)C(=O)O		binding, MIDAS equilibrium dialysis LC-MS	A2AR-BRIL thermostabilized	concentration not given	baseline: no-protein control	log2 fold change	0.0105
COc1cnc2cccc(N3CCc4c(cc(Cn5ccnc5C)cc4-c4cn(C)nc4C(F)(F)F)C3=O)c2c1	WM-115	cell growth, inhibitor		120 h		EC50	> 30 µM
CC(O)(CC(=O)O)CC(=O)O		binding, MIDAS equilibrium dialysis LC-MS	A2AR-BRIL thermostabilized	concentration not given	baseline: no-protein control	log2 fold change	-0.052
CSc1cc(Oc2ccnc3[nH]c(=O)cnc23)ccc1NC(=O)Nc1cc(C(C)(C)C)nn1-c1ccccc1	mean of patient lines P1-P3	reverse phase protein array, measured: Akt pSer473		1 µM, 4 h	baseline: DMSO	phospho/total Akt ratio	0.35
O=C(O)CNC(=O)Cc1ccccc1			ventricular cardiomyocytes, C57BL/6 mouse	dose not given, 0.636 s		sarcomere length	1.71 µm
O=C(O)CC[C@H](NC(=O)N[C@@H](CCCCNC(=O)[C@H](Cc1ccc2ccccc2c1)NC(=O)CCCCCNC(=O)CN1CCN(CC(=O)O)CCN(CC(=O)O)CCN(CC(=O)O)CC1)C(=O)O)C(=O)O [gallium-68 labelled]		gamma counting	mouse, PC-3 xenograft, spleen	intravenous, 3.7 MBq, 2 h		tissue uptake	1.63 ± 0.12 %ID/g
N#Cc1ccc2c(c1)[C@H]1CCCN(C(=O)c3ccc4[nH]cnc4c3)[C@H]1C2			human, urine	10 mg, 24 h, day 1 over day -1	baseline: placebo and baseline	total urinary corticosteroids	49.8 % change
CCCCCCCC(=O)SCCNC(=O)CCNC(=O)[C@H](O)C(C)(C)COP(=O)(O)OP(=O)(O)OC[C@H]1O[C@@H](n2cnc3c(N)ncnc32)[C@H](O)[C@@H]1OP(=O)(O)O		binding, MIDAS equilibrium dialysis LC-MS	A2AR-BRIL thermostabilized	concentration not given	baseline: no-protein control	log2 fold change	0.645
O=C(O)CNC(=O)c1ccc(S(=O)(=O)N2CCC(n3c(=O)oc4ccccc43)CC2)cc1	USP16 ZnF-UBD domain					Kd	536 µM
CCn1cc(-c2cc(Cn3ccnc3)cc3c2CCN([C@H](c2cc(OC)ccn2)C2CC2)C3=O)c(C(F)(F)F)n1	ZR-75-30	cell growth, inhibitor		120 h		EC50	0.175 µM

A few entries again:
SMILES	tested on	assay	test system	conditions	scale	endpoint	value
O=C(O)CNC(=O)c1ccc(S(=O)(=O)N2CCC(n3c(=O)oc4ccccc43)CC2)cc1	USP16 ZnF-UBD domain					Kd	536 µM
